Results collected from several papers.
Numbered parts are unrelated; each lists some results of a single study.

Sample 1
Target: Ras GTPase-activating protein-binding protein 1, full length (G3BP1, Homo sapiens, UniProt Q13283)
Chain of UniProt Q13283 (whole entry, looked up): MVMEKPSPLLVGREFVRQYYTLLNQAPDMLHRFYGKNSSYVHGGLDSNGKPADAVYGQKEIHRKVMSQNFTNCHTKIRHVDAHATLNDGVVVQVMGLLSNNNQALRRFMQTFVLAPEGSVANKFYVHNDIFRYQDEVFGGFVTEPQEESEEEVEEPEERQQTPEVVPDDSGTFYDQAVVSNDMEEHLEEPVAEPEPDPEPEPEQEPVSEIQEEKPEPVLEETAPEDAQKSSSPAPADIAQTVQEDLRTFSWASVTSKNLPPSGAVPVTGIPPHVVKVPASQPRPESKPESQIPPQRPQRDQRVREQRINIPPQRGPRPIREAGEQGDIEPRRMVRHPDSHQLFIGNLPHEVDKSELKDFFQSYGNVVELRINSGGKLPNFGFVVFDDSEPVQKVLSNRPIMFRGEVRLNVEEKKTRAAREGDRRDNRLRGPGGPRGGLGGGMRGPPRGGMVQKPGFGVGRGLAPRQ
Technique: RNA Bind-n-Seq
Form: RNA
Matrix: in vitro
Concentration: 200 nM
Setting: whole 134-nt RNA, ends assumed
Added: 150 mM LiCl
Baseline: input library
Direction: higher = stronger binding
All molecules: 7-deaza-guanosine replaces G
Shared flanks, not repeated: GGGAGUUCUACAGUCCGACGAUC … UGGAAUUCUCGGGUGUCAAGG
Strand | log2 enrichment
AGUCCUGUGCUACACAUCGUAUGUACCGAAUCGGGGAAAAGGGAAAAGGGGAAAAGGAAAGUAUUAUGUUACGCCGUUCGGAUCUGCACU | -0.515
GCAGGAAGUAAAAACAAAUGGAAAUGCUUCGGAUAUUGGCAGGGGUGGGGGUUGCUAAGGAAAGGGUGGGAUGGGAGUGGGUAAAGAGUU | 0.292
GUCCUGUGCUACACAUCGUAUGUACCGAAUCGGUUUUUGGGGUUUUUGGUUUUUGGGGAAAGUAUUAUGUUACGCCGUUCGGAUCUGCAC | -0.612
GCAGGAAGUAAAAACAAAUGGAAAUGCUUCGGAUAGUGGCAGGGGUUGGGGUUGCUAAGGAAAGGGUGGGAUGGGAGUGGGUAAAGAGUU | 0.0156
AAGUCCUGUGCUACACAUCGUAUGUACCGAAUCGGGUUUUUGGUUUUUGGUUUUUGGAAAGUAUUAUGUUACGCCGUUCGGAUCUGCACU | -0.543
GCAGGAAGUAAAAACAAAUGGAAAUGCUUCGGAUAGUGGCAGGGGUGGGGGUUGCUAAGGAAAGGGUGGGAUGGGAGUGGGUUAAGAGUU | 0.111
UGUGAGAUUAAACUUGCCCCCAAACGAUCUCGUUUGGAGACUAGAGCUGGAGAAGAAGAUGAAGGAGAAGAGGAUUCUGAUUCUGAUUAU | -1.37
CUCAAGUCCUGUGCUACACAUCGUAUGUACCGAAUCGGAAAAAGGUUUGGAGGAAAGUAUUAUGUUACGCCGUUCGGAUCUGCACUUCCA | -0.308
UAACUUUAGAGGAGGAUCUGAUGGAUAUGGCAGUGGACGUGGAUUUGGGGAUGGCUAUAAUGGGUAUGGAGGAGGGCCUGGAGGUGGCAA | 0.554
CUGUGCUACACAUCGUAUGUACCGAAUCGGUUUUUUUGGGUUUUUUUGGGGUUUUUUUGGGAAAGUAUUAUGUUACGCCGUUCGGAUCUG | 1.16
CAAGUCCUGUGCUACACAUCGUAUGUACCGAAUCGGAGGUUUUUGGUUUUUUUGGAAAGUAUUAUGUUACGCCGUUCGGAUCUGCACUUC | -0.703

Sample 2
Target: RNA binding protein fox-1 homolog 2, RRM domain, GST-SBP tag (RBFOX2, Homo sapiens, UniProt O43251-10, residues 100-194)
Technique: RNA Bind-n-Seq
Form: RNA
Matrix: in vitro
Concentration: 365 nM
Setting: natural RNA segment, single round, ends assumed
Baseline: no-protein control
Direction: higher = stronger binding
Shared flanks, not repeated: GGGAGUUCUACAGUCCGACGAUC … UGGAAUUCUCGGGUGCCAA
Target sequence (chain): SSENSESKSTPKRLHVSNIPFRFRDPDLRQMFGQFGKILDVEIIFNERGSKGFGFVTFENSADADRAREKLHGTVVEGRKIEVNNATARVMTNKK
Strand | RBNS enrichment (R)
AAAGGAGGGUGGUAGGUACCAAGAACCAGUGGAGGGGACCCUGAGCUGGCAAGAGUAAGCCCCAUCUCCUGCUCUGGCAAAGCCUGGCUCCUGGAGUACCUCACUCUGCC | 0.45
AAACUAUACUUGUAUUAAAUGUGCUUUUUAAAUAAAAGCUCGUAACACAACUAAUUAAGGACUUGCAGCCUGGAGUGUUUGAGAGAUGUUUGUCUCAGGUGUGUGGGUAG | 0.591
UUUUAAAUAGAAUACGGUUUUAAUUUUUGAUAAGCUGCUGAAUUUUAAAGAGAGUUUUUUGGGGCCACCAAAUAUUUUGGAUCAUGCAGAGAAUAUAUAUUGUACUGUAG | 0.529
ACACCCAAUACACACAAAACAAAAGUAACUCAAGAAUAGCCUGGGCUACAUAGCAAGAGCCUGUCUCAAAACAAACGAACCUAUGAAGAGCCAGGCAGUCUAUCUAUUUA | 0.691
GGUUCUGGUACUUUGAAGUCAAUGCUGUCAGGCCAGGGAAAUAAAAUAAUUGCUUACCUUAAAAGUCUACCUGGACUCAGAAUUGUGGCCUCUUUCUUUUUCUUUUCCUU | 0.401
GUCCUCAAAGCCUUCUGUCUGUAUCAGGAAUGUAGUCUGAGACUGCCAGGAAGCAACAAGGAGAGAGAAACACUAACUAGUCUUCCUUUAUAACCCAUUCAUACUCUCUG | 0.632
UACAAGCUCUUGCCUCUGUGCCUUUCUCAUGCUAUUCUUUUUGCUUAGAUUGCUCUUUGGUCCCAGCUCAUGUUCAUCACUCCCUUCAAAGCCUUUCUUCCUUUAUAUCU | 0.516
AAUGUAUAAAGUAACACCCAAAUGUUAUUAGAAACUAGUCUUUUAGUAUUUGUAAUUUUCAACUCUUAUUGUGUUACUUUGUGUGAAAAUUUUUAGUCAAAAGUGCUUGG | 0.65
UGAAGAUGAUAUACUAUUUUUGUUAAGCGUGUCUGUAUUUAUGUGUGAGGAGCUGCUGGCUUGCAGUGCGCGUGCACGUGGAGAGCUGGUGCCCGGAGAUUGGACGGCCU | 1.71
GAAGUAUUAAGGGAGGAAGUGCUGGUAGCUGCCCUGUGGGGAGACUCCCUAGGAAAGUAACGGGCACCAGGCUUCGUGACUUUCAUUCUCAUUUAUAAGUUAGACAUUCA | 0.508
UCUCCUUAGGGAUGUGUGUGUUCAGUGCAAAGUAAGAAAUAUGAAAAUAUCCCUGUUCUUAGUUACCUUGCCACUUUGGCUUCUCCUGUGGCCCUGCCUUUACCAUAUCA | 0.305
UAGCUCGGACAGUGCAGUGGUGCACAUCAGCAACUUGUAUUUCUUCGGUGUUUGGCACGAGCACUGUCUCGCUGUGGCUGUGUGUCAUGAGAACUUACCAGCAGAAAUCC | 0.552

Sample 3
Target: Interferon regulatory factor 7, full length, phosphomimetic (IRF7, Homo sapiens, UniProt Q92985, residues 1-503, S471D/S472D/S475D/S476D/S477D/S483D/S484D/S487D)
Technique: protein-binding microarray
Form: double-stranded DNA, one strand shown
Matrix: in vitro
Concentration: 2200 nM top
Setting: 60-bp whole probe
Added: salmon DNA 0.4 mg/ml
Baseline: random background probes
Direction: higher = stronger binding
Shared flanks, not repeated: GCCTAGCAC … GTCTTGATTCGCTTGACGCTGCTG
Construct (chain): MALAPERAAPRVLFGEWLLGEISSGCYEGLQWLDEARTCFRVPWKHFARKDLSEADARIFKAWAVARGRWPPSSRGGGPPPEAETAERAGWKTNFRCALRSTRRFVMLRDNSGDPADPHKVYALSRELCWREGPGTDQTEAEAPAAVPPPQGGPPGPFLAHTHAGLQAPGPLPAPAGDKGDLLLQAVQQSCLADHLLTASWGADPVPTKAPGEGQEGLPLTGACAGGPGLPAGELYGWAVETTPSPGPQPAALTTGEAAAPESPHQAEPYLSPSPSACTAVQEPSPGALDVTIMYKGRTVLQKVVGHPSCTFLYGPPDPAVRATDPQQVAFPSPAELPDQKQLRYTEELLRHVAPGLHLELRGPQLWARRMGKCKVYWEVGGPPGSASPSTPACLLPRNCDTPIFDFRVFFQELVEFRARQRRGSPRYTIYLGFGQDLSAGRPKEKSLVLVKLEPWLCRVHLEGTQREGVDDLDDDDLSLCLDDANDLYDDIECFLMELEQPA
Strand | fitted relative affinity [z-score]
GACGGTCTCCTTTTCCTGAAGTGCTAG | 1.3
GACGGTATCGACTTTCGGGAAGTGCTA | 1.58
TTAGATATCAGCCTCGATTAGTGCTAG | 0.186
TCAGGTATCCTACTGCTTTAGTGCTAG | 1.16
GACGGACTGGGGTATCGGGGCGTGCTA | -0.647
TTAGGGTTCGGTCTCGGTTAGTGCTAG | 0.772
TTAGATATCAGTCTCTATTAGTGCTAG | 0.2
TTAGGTTTCGTTTTCCTTTAGTGCTAG | 13.1
GACGGTATAGGGTATCGGGACGTGCTA | -0.517
TCATTTCTTTTATTAGTACTGTGCTAG | 1.83
TTATATTTCAGACTGGATTAGTGCTAG | 0.437
GTGAACCGGTCTCTCAGACCGTGCTAG | 0.158
GACGGTATCGGTATCGGTACGTGCTAG | 0.695

Single results of other studies
Molecule | target | test | test system | setting | scale | quantity | result
PhoQ, residues 284 288 289 292 302 303 TLSLKA | PhoP, residues 12 14 15 18 19 VHTVL (Escherichia coli, UniProt P23836) | Sort-seq, measured: YFP reporter | E. coli | PhoQ-PhoP variant library, added: 10 µM Mg2+ | baseline: high Mg2+ state, higher = stronger signaling | fold induction | 1.15

A few entries again (sample 2):
Strand | RBNS enrichment (R)
GGUUCUGGUACUUUGAAGUCAAUGCUGUCAGGCCAGGGAAAUAAAAUAAUUGCUUACCUUAAAAGUCUACCUGGACUCAGAAUUGUGGCCUCUUUCUUUUUCUUUUCCUU | 0.401
GUCCUCAAAGCCUUCUGUCUGUAUCAGGAAUGUAGUCUGAGACUGCCAGGAAGCAACAAGGAGAGAGAAACACUAACUAGUCUUCCUUUAUAACCCAUUCAUACUCUCUG | 0.632
UACAAGCUCUUGCCUCUGUGCCUUUCUCAUGCUAUUCUUUUUGCUUAGAUUGCUCUUUGGUCCCAGCUCAUGUUCAUCACUCCCUUCAAAGCCUUUCUUCCUUUAUAUCU | 0.516
AAUGUAUAAAGUAACACCCAAAUGUUAUUAGAAACUAGUCUUUUAGUAUUUGUAAUUUUCAACUCUUAUUGUGUUACUUUGUGUGAAAAUUUUUAGUCAAAAGUGCUUGG | 0.65
UGAAGAUGAUAUACUAUUUUUGUUAAGCGUGUCUGUAUUUAUGUGUGAGGAGCUGCUGGCUUGCAGUGCGCGUGCACGUGGAGAGCUGGUGCCCGGAGAUUGGACGGCCU | 1.71
